# Published values gathered from unrelated publications.
# Parts stem from different laboratories: compare values within a part only.

# Sample 1
# Target: RING finger protein unkempt homolog, zinc fingers 1-6, GST-SBP tag (UNK, Homo sapiens, UniProt Q9C0B0, residues 30-357)
# Chain of UniProt Q9C0B0 (30-357, looked up): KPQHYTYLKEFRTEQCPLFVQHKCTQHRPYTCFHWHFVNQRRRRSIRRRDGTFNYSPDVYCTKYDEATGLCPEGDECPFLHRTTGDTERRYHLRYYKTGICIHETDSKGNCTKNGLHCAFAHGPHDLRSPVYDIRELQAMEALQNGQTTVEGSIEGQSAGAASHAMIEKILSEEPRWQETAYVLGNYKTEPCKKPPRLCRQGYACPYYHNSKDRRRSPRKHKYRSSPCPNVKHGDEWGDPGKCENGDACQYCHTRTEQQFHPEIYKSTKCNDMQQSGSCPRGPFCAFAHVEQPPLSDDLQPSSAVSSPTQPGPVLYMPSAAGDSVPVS
# Method: RNA Bind-n-Seq
# Molecule type: RNA
# Medium: in vitro
# Concentration: not given
# Setting: RNA with constant flanks, human-mouse chimeric sites, ends assumed
# Reference: input RNA pool
# Direction: higher = stronger binding
# Constant ends, left off below: GGGAGUUCUACAGUCCGACGAUC … CAACAGAGGAUUGAGCAUCA
Oligonucleotide,bound/input enrichment [ratio]
CAGCGCCGAGGCCGCGGUUUCCCCCUGGGUGUGCUGAGCAGCAGCCAUGGGCAUCAAAUUUUUAGAAGUUAUCAAACCAUUCUGUGCAGUUCUACCAGAAAUUCAGAAACCGGAAAGGAA,1.44
GUUGCCAGCUUCCGGUUGGCCUCCAUCCGGUUCUCUCCUGAGCUACGUGUCUCUACGCUCUCAAUCCCGGUUGGGUAAAACAUGGAUCAGGUAAUGCAGUUUGUGGAGCCCAGCCGGCAG,0.136
CCCUCCCGGGCCACCCAACCCCUCCCGCUCCCAGCGGGAGAUCCAGGUUUCUUCUUAUUUCAUAGCAAAUAAGAAAAAUGUUCUACGCACAUUUUGUCCUCAGUAAACGAGGGCCUCUGG,0.391
CUUAAUGUUAAUAUUUUUGAAUAAAUGAAGCUAAAAUUUUGCUUUCUGGUACAACACGCAUUAAUAAAAGGUUAAGUUUUGUUUUCCACUGAAGUACUAUUUAACAUACAUCUCAGAAAC,0.333
AAAUUUCCCCUCCUGAGACCUCCUCCGAAGUUGGAGUCUCUUACAGAUGCCUCAUCCCCUGUUAGCGUUUUGGUCUGGACCACCCAGCCUUGGACAAUUCCCGCCAACCAGGCAAUUUGC,0.38
AUCAAAUACUUUGGGGACAUCAUUAGUGUGGGACAGAGAUUGUUGCAAGGAGCUCGGAUCUUAGGGAUUCCAGUUAUCAUAACGGAACAAUACCCCAAAGGACUUGGGAGCACGGUUCAA,0.236
CUUUUUAAGAAGAUAUGUGAUGGGAUCUUUUAUACCCCUCAAUAUUUAAAUCCUUCUGUAAUCAGCCUUUUGAAACAUAUGCUGCAGGUGGAUCCCAUGAAGAGGGCCGCAAUAAAAGAU,0.326
UAUAAUAAUCAUGAAAUUCGUUCUGGAAAGCACAUUGGUGUCUGCAUCUCAGUUGCCAACAAUAGGCUUUUUGUGGGCUCGAUUCCUAAGAGUAAAACCAAGGAGCAGAUUCUUGAGGAA,0.849

# Sample 2
# Target: Fragile X messenger ribonucleoprotein 1, C-terminal low-complexity region (Fmr1, Mus musculus, UniProt P35922)
# Method: RNA Bind-n-Seq
# Molecule type: RNA
# Medium: in vitro
# Concentration: 200 nM
# Setting: whole 134-nt RNA, ends assumed
# Together with: 150 mM LiCl
# Reference: input library
# Direction: higher = stronger binding
# All molecules: 7-deaza-guanosine replaces G
# Constant ends, left off below: GGGAGUUCUACAGUCCGACGAUC … UGGAAUUCUCGGGUGUCAAGG
Oligonucleotide,log2 enrichment
UGGCCCUGGUGGCAUGCGGGGAGGAAGAGGUGGCCUCAUGGAUCGUGGUGGUCCCGGUGGAAUGUUCAGAGGUGGCCGUGGUGGAGAAAG,-0.077
UCAAGUCCUGUGCUACACAUCGUAUGUACCGAAUCGGCCGGGCCGGGGCCGGGGAAAGUAUUAUGUUACGCCGUUCGGAUCUGCACUUCC,-0.215
AGUCCUGUGCUACACAUCGUAUGUACCGAAUCGGGGCCCCGGCCCCGGGCCCCGGGGAAAGUAUUAUGUUACGCCGUUCGGAUCUGCACU,-3.57
UUUCCAGCAGUACCAGCUCCAGCCAGGAUCACCCUCUCUACUCUGGGCACCCAUCCCUUCCACUAAGUGGUGCUAUUGCUGCUUUUGCCU,1.62
UCCUGUGCUACACAUCGUAUGUACCGAAUCGGGGAAAAAGGGGUGGGGUUUUUUUGGGGAAAGUAUUAUGUUACGCCGUUCGGAUCUGCA,-1.75
UAACUUUAGAGGAGGAUCUGAUGGAUAUGGCAGUGGACGUGGAUUUGGGGAUGGCUAUAAUGGGUAUGGAGGAGGACCUGGCGGUGGCAA,0.348
UGGGUGAAGAGGGACAGUUACCUUCCUGUGGGCAGUCAUAAUCUCAAGGCGGCCGCCAAGGCCAAGCUAGGCUAUGAUCCCGUGGAGCUA,-1.38
ACCAUGCAGGUGGCCAUCUUUGGGAAGUGGGGCAAGGGGGGGAUAGGGAGGGGGGUAACACUUUGGGAACAGGUGGUCCCAGGUCGUUUC,1.6

# Sample 3
# Target: Histone acetyltransferase KAT6A, winged helix 2, GST fusion (KAT6A, Homo sapiens, UniProt Q92794, residues 85-181)
# Method: protein binding microarray
# Molecule type: double-stranded DNA, one strand shown
# Medium: in vitro
# Concentration: not given
# Setting: 8-mer, flanks averaged, mean of 2 arrays, mostly near background
# Reference: not given
# Direction: higher = stronger binding
# Residues (chain): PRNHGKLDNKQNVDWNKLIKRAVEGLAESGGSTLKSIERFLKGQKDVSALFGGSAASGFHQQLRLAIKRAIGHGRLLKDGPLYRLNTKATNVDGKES
Oligonucleotide,E-score
GAGTAGCA,0.215
CTATATAA,-0.136
GGAGTAAC,0.00188
AGCAGGAT,-0.0683
ACGCTCCC,-0.0272
GGAAAACC,-0.0309
CTAAGACA,-0.053
CGGCTAAA,0.16
CCGGGACC,0.342
ACGTCAGC,0.0424
GGAGTAGA,0.059
TTGAAAAA,0.11
AATCTTTC,-0.0875
GTTGTGTA,-0.123
CAGACGGA,0.0128
CGATGACA,0.0164
CTTCTGCA,0.164
CCCCCTCG,0.165

# Sample 4
# Target: Interferon regulatory factor 7, full length, phosphomimetic (IRF7, Homo sapiens, UniProt Q92985, residues 1-503, S471D/S472D/S475D/S476D/S477D/S483D/S484D/S487D)
# Chain of UniProt Q92985 (whole entry, unmodified, looked up): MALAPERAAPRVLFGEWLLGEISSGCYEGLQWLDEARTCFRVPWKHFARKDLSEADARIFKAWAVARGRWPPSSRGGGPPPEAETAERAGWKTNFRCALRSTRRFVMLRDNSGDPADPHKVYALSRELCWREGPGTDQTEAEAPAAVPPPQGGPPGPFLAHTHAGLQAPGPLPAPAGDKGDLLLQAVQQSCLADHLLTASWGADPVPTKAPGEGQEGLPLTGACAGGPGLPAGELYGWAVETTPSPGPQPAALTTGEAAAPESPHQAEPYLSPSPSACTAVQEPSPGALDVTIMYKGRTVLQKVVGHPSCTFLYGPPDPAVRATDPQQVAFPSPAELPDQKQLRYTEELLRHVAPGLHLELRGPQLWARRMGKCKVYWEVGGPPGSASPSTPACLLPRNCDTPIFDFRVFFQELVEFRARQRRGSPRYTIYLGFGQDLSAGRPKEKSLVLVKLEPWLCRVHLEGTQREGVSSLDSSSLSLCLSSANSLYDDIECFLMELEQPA
# Method: protein-binding microarray
# Molecule type: double-stranded DNA, one strand shown
# Medium: in vitro
# Concentration: 2200 nM top
# Setting: 60-bp whole probe
# Together with: salmon DNA 0.4 mg/ml
# Reference: random background probes
# Direction: higher = stronger binding
# Constant ends, left off below: GCCTAGCAC … GTCTTGATTCGCTTGACGCTGCTG
Oligonucleotide,fitted relative affinity
TCATTTTGCTTTCTTTAACTGTGCTAG,3.75 z-score
GGCGATTCCAGTTTCGAGACGTGCTAG,3.55 z-score
GACGGATTGGGACTGGGGACGTGCTAG,-0.255 z-score
TTAGATTTCGGGTTTCGAATAGTGCTA,4.61 z-score
GACGGTCTCGAACTGGGGACGTGCTAG,-0.342 z-score
TTAGGTTTCGACACTGAGTTAGTGCTA,1.95 z-score
GACGAACCGAGTCTCGAGACGTGCTAG,0.442 z-score
GACGGTTTCGGTTTGGGGACGTGCTAG,14.4 z-score
GACGGACTGGACTATCGCGACGTGCTA,-0.326 z-score
GACGGTTTCGAATTTCGGGACGTGCTA,5.12 z-score
GACGGTCCCGGTATCGGGACGTGCTAG,-0.351 z-score
TTTGATCTCAGACTGGATTAGTGCTAG,0.281 z-score
TTAGAACTGAGTATCGATTGGTGCTAG,-0.0193 z-score
TGAGGACTGGGTCTCGGTTAGTGCTAG,-0.67 z-score
TCTGATTTCTCAAACAGCTCGTGCTAG,1.21 z-score
GACGGTATCGGGTATCGGAACGTGCTA,0.118 z-score
TCATGTTTTAAATTCTAACTGTGCTAG,0.932 z-score
TACGGTTTCGGGTTTCGGGACGTGCTA,10.1 z-score
AGACGAATCATATCAAAATTGTGCTAG,-0.806 z-score

# Some of these lines once more (sample 4):
Oligonucleotide,fitted relative affinity
GACGGACTGGACTATCGCGACGTGCTA,-0.326 z-score
GACGGTTTCGGTTTGGGGACGTGCTAG,14.4 z-score
GGCGATTCCAGTTTCGAGACGTGCTAG,3.55 z-score
TTAGATTTCGGGTTTCGAATAGTGCTA,4.61 z-score
TGAGGACTGGGTCTCGGTTAGTGCTAG,-0.67 z-score
